Results pooled from the literature.
A part holds a random share of what one study measured. Changes are numbered by the printed parent chain.

Set 1 — technique: RNA Bind-n-Seq; molecule type: RNA; sample: in vitro; tested at: 365 nM; relative to: no-protein control; direction: higher = stronger binding
Target: RNA binding protein fox-1 homolog 2, RRM domain, GST-SBP tag (RBFOX2, Homo sapiens, UniProt O43251-10, residues 100-194)
Setting: natural RNA segment, single round, ends assumed
Shared flanks, not repeated: GGGAGUUCUACAGUCCGACGAUC … UGGAAUUCUCGGGUGCCAA
Target sequence (chain): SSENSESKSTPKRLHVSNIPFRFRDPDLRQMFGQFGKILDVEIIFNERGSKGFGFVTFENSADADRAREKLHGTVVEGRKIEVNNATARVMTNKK
| Strand | RBNS enrichment (R) |
| --- | --- |
| UGGCUCAGAGCUCUUGCCCAUGAGCAGAUGUUUACAAGAGAGGAAAAGAUUGCUUGCUACGACUGCAUCAGCGUCUGCACCUGCGUAAGGAGGAAGCUCACUCACUCAAG | 0.429 |
| UAACUUGUGGCAAGAGGGAGGCAGAGAAUUGACUAGCUCUGACACCUAUUAAAGACAAAACUGGCUGCUUCUGAGCUCUUUCAGGCUGUACUUUGUGCUGUGCCAGUGGC | 0.554 |
| CAACCAUUUUUAUUUAAAAUAAACAUUUGAGGGAAGUUACCAAGGCAGCUUUUUUCCUCAAAAGUAACCUGUUCCUCUUUGGAAUAGCACAUUUUAGGGGCAUGGUUAAU | 0.4 |
| UUGUUAAUUAUGGCUUUUACUUCAUUUUAGAAAAGCACUAGAAAUUCUAAAUUUACUUUUCCUCUAGACCACACUUAAUGCCUGCCUUGAAGACAUUACAGAAAUGAAGG | 0.426 |
| ACUGUUACCUUGUGUUCCACCUUGAAUCUCACAGCGUCCCCUUCUGCAAUGUAGGUCUCCUUCCUGUGCAGUGUAACAUGUAUCCCGUUGCCUGUUGUUCGGUUGUGUGA | 1.15 |
| CUGCUCCCUCGGGCCUGUAGGGGGAGGUGGCCUUCUGACCCCUUUACACGUCCCCUGGGUGGACCUCCCUGCUGCAGGCACCAUACCUGCGAUGGUGUACAGGGCUGUGA | 0.415 |
| ACUCUGUUUAGUGACUUAAUUGUAUCCCACCAAUUACUGCUGGUGACUUACUCACCCUUGUACAGUGUUUGCAUAGCAGAGUGAAGGUUACUUAUUACCCUCUUUCUCUC | 0.31 |
| CGGCAGCGUGUAGGGCUUCAGCUUCCUGGGUUUUCACCCUUCCUGCAGGCACUGUGGGGUCCUGAGGGCCAGUGGGUCCAUUUCACCUCUUGCUGCAUGAUGGUCAGUAG | 0.852 |
| CUCACACGACUAUUUACAUCAAAUCAGAUAUUAACAAGUGAAUGCUUGAGUUGCCUUGUAGAGCUACUUGAAGACCCCAACAUAAGUGCUUCACUGAUCUUAAGUAUUAU | 0.446 |
| CUCAUCCCUCAGCAGAAAAAUGUGGGCCUAAAAUGAGUUGUGUCACUCAGCAAACAUUUCCUGAGUACCUACUAUAUACCAAACUUAUAGAAAGACUAACUAGGGAACAA | 0.303 |
| AUAUUUUAAACAGCUUUGCUUGUAUUGUGAAGAUUUAAGAACAAACUUGAGAUUUUUAAAGUUAACUAUUAACACAGUUUUAACAUAAGUUAUCCCACUGGGUUUAAAAG | 0.409 |
| CAAAUGAUUUUCUAACUUAGUGUUAGGAGAAAUUAUUUUCCAUCUUUAACCUCUUAGUUGUCUAAGAGUUAAAUAUUACUGAAUUUCAGACGUUCAAAUUGAUCAUCACA | 0.281 |

Set 2 — technique: protein binding microarray; molecule type: double-stranded DNA, one strand shown; sample: in vitro; tested at: not given; relative to: not given; direction: higher = stronger binding
Target: Histone acetyltransferase KAT6A, winged helix 2, GST fusion (KAT6A, Homo sapiens, UniProt Q92794, residues 85-181)
Setting: 8-mer, flanks averaged, mean of 2 arrays, mostly near background
Residues (chain): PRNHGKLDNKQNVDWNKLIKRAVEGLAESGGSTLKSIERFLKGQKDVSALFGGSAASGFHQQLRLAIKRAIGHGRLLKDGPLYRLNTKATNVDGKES
| Strand | E-score |
| --- | --- |
| GTCAGCAA | 0.0375 |
| AAGTACGA | -0.0523 |
| GATATATA | 0.116 |
| ACGACATC | 0.0533 |
| AAAGACAA | 0.0952 |
| GGATCACA | -0.0562 |
| CGTTATTA | -0.177 |
| CATGTGAA | -0.168 |
| ATACTCGG | 0.0308 |
| AATTGGGT | 0.158 |
| GGAGAAAA | 0.0345 |
| TACGGAAA | -0.144 |
| GGAATGAC | 0.0291 |
| CATAGGTC | -0.0178 |
| CTTCCCCA | -0.00169 |
| CCTGTGAA | -0.0119 |
| CACACGAG | -0.178 |
| GGGTCGTA | 0.0021 |
| AGTATCCG | 0.0549 |

Set 3 — target: MAFK, bZIP domain (human); technique: DHFR protein complementation; sample: yeast; relative to: wild-type JUN-FOS pair; direction: higher = stronger binding
Setting: single substitutions, most at no-binding floor
Parent: JUN, bZIP domain (human); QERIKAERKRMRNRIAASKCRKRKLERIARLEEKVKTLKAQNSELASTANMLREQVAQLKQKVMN; partner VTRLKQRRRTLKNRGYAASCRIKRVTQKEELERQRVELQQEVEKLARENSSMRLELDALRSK
| Variant | binding fitness [natural log] |
| --- | --- |
| Q58P | -1.4 |
| A49N | -1.39 |
| A49F | -1.51 |
| S43M | -1.47 |
| L45W | -1.42 |
| E44V | -1.48 |
| I28T | -1.51 |
| L45K | -1.51 |
| Q55A | -1.43 |
| Q41M | -1.44 |
| E54M | -1.24 |
| L31F | -1.53 |
| L59T | -1.55 |
| L31V | -1.44 |
| I28L | -1.51 |
| L52E | -1.53 |
| A29M | -1.35 |
| R30H | -1.49 |
| K34H | -1.52 |

Set 4 — technique: DHFR PCA, deep sequencing; sample: yeast; with: (+)-ABA 0.0091 µM; relative to: wild-type fitted maximum; direction: higher = stronger binding
Target: ABI1, truncated, D143A, DHFR fusion (Arabidopsis thaliana)
Setting: methotrexate growth selection, single substitutions
Parent: PYL1, truncated, DHFR fusion (Arabidopsis thaliana); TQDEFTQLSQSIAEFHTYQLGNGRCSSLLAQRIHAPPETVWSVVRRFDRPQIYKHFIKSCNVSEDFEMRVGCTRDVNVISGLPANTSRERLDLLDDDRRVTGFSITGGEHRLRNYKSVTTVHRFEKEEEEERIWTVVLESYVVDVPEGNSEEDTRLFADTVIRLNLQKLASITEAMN; partner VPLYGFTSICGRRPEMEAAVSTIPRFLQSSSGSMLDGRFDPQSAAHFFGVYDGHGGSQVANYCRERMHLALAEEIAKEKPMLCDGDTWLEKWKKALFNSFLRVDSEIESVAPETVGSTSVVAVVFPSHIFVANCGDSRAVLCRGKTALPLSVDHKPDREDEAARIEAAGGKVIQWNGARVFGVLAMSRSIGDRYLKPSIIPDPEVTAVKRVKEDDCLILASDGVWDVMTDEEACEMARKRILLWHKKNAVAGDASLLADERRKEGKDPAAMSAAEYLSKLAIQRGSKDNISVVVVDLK
| Variant | relative binding score [%] |
| --- | --- |
| D65C | 1.47 |
| C72P | -3.92 |
| E125V | 40.2 |
| T119A | 0.838 |
| V121S | 6.36 |
| I79W | 20.4 |
| S9T | 28.4 |
| G81W | 3.92 |
| R123Q | 71.5 |
| K58V | 4.49 |
| E89C | 5.16 |
| V118L | -1.79 |
| S171K | 32.8 |
| D97C | 11.8 |
| R46G | -3.68 |
| A175H | 14 |
| T119S | -4.39 |
| Q2I | 74.5 |
| S140R | -0.0868 |
| C60S | -1.09 |
| G107R | 3.2 |
| Y53A | -2.32 |
| T73W | 16.8 |
| R32P | 0.468 |
| I33M | 2.01 |

Set 5 — target: CCNA1, cyclin fold, Cln2 fusion (human); technique: yeast growth competition, sequencing; sample: yeast; setting: weak parent motif; relative to: not given; direction: higher = stronger binding
Parent: WEE1 docking peptide (human); HKTFRKLRLFDTP
| Variant | normalised enrichment score |
| --- | --- |
| L7Q | 0.627 |
| K6R | 0.224 |
| T12G | 0.536 |
| R8V | 0.181 |
| H1G | 0.369 |
| L7C | 0.622 |
| L9Q | 0.726 |
| F10T | 0.227 |
| L9K | 0.411 |
| H1N | 0.366 |
| K2A | 0.333 |
| T3D | 0.173 |
| F4A | 0.286 |
| K2S | 0.0526 |
| L9E | -0.453 |
| R8K | 0.557 |
| R5Y | 0.0896 |
| F10H | 0.248 |

Set 6 — technique: protein-binding microarray; molecule type: double-stranded DNA, one strand shown; sample: in vitro; tested at: 2200 nM top; setting: 60-bp whole probe; with: salmon DNA 0.4 mg/ml; relative to: random background probes; direction: higher = stronger binding; shared flanks, not repeated: GCCTAGCAC … GTCTTGATTCGCTTGACGCTGCTG
Target: Interferon regulatory factor 7, full length, phosphomimetic (IRF7, Homo sapiens, UniProt Q92985, residues 1-503, S471D/S472D/S475D/S476D/S477D/S483D/S484D/S487D)
Residues (chain): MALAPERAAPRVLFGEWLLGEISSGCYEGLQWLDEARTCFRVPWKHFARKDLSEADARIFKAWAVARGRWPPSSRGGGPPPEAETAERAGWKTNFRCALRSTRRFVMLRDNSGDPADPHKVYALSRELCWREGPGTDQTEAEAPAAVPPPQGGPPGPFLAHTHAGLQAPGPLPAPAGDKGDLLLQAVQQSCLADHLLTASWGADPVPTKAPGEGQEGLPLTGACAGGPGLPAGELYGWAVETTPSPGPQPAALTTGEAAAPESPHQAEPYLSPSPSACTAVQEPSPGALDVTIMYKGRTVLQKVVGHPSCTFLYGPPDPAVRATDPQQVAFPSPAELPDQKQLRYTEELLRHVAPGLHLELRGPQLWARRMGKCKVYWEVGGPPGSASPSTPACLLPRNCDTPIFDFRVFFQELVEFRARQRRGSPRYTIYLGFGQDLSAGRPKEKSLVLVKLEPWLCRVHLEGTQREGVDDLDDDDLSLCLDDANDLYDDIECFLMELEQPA
| Strand | fitted relative affinity [z-score] |
| --- | --- |
| AACGATCTCAGTTTCGAGACGTGCTAG | 3.51 |
| GACGATTTCCGGTATCGAGACGTGCTA | 1.91 |
| GACCGTTTCCTTCTCCTGACGTGCTAG | 2.82 |
| GTGAGTCCCAAGAATGGTGTGGTGCTA | -0.352 |
| GACGGTAACGGTCTCGGGACGTGCTAG | -0.594 |
| TTAGGACTGGGGTAACGGTTAGTGCTA | -0.847 |
| TTAGGACTGGGAGTGGGTTAGTGCTAG | -0.786 |
| CACCGTCTTATTAAAAAACAGTGCTAG | 0.732 |
| TTAGGTTTCGACACTGGGTTGGTGCTA | 2.28 |
| GACCATCTCAGACTGGAGACGTGCTAG | 0.0573 |
| TATGGCTTCAAGTAACTACAGTGCTAG | -0.128 |
| TCATATATATATTATATAACTGTGCTA | 0.283 |
| GCCGGTTTCGGGACTGGGGACGTGCTA | 4.94 |
| TCAAGAATGCCTTTAATACTGTGCTAG | -0.0865 |
| TCAAGCCTCAGTCCTCACACTGTGCTA | 0.678 |
| CAAATACTCTTCCATGGAGAAGTGCTA | 0.0538 |
| GACGAACCGGGGTATCGAGACGTGCTA | -0.0431 |
| TTAGGTTTCTGACTGGGTTAGTGCTAG | 1.2 |
| GACGCACTGCTACTGCTGACGTGCTAG | 0.346 |
| TTAGGTATCCTTAGCCTTTAGTGCTAG | -0.017 |
| GGGCCCTGCTGGGAAGTCAGGTGCTAG | -1.77 |
| GAGGGACTGGGGACTGGGGACGTGCTA | -0.711 |

Other studies, line by line
| Molecule | target | assay | system | conditions | how to read | measurement | result |
| --- | --- | --- | --- | --- | --- | --- | --- |
| PhoQ, residues 284 288 289 292 302 303 AANNSF | PhoP, residues 12 14 15 18 19 LYFRQ (Escherichia coli, UniProt P23836) | Sort-seq, refers to: YFP reporter | E. coli | PhoQ-PhoP variant library, with: 10 µM Mg2+ | relative to: high Mg2+ state, higher = stronger signaling | fold induction | 18.4 |
